Results from different studies.
Each numbered part is a random draw from the data of one study; scales do not carry over between parts. Positions count from the first letter of the parent shown.

Set 1 — method: protein-binding microarray; molecule type: double-stranded DNA, one strand shown; sample: in vitro; concentration: 940 nM top; setting: 60-bp whole probe; added: salmon DNA 0.4 mg/ml; relative to: random background probes; direction: higher = stronger binding; all sequences stand within: GCCTAGCAC … GTCTTGATTCGCTTGACGCTGCTG
Target: Interferon regulatory factor 5, full length, phosphomimetic (IRF5, Homo sapiens, UniProt Q13568-2, residues 1-514, S451D/S453D/S456D/S462D)
Sequence	fitted relative affinity [z-score]
GACGAATTGGGGACTGGAGACGTGCTA	-0.0896
TCATCAATCATTTTCGTACTGTGCTAG	0.865
TTAGGTATCCATCTCCTTTAGTGCTAG	0.771
TTAGGTTCCCTTTTCCTATAGTGCTAG	1.3
TTGGGTTTCGGGACTGGGTTAGTGCTA	6.05
GACGGACTGCTCTTCCTGACGTGCTAG	-0.399
TTAGATTTCAGTATTGATTAGTGCTAG	1.01
TTAGGTATCTTTCTCCTTTAGTGCTAG	1.02
GACCAACTGAGTATCGAGACGTGCTAG	1.5
TAACTAATATTAAATATGTAGTGCTAG	0.163
GACGGTATAGGTTTCGGGACGTGCTAG	3.13
GCCCTTATCCAATCAGAATTGTGCTAG	0.674
TTAGGTTTCGCGTATCGGTTAGTGCTA	5.33
GACGGACTGGACTTTTGGGACGTGCTA	-0.2
TTAGGTCTCCTAATGCTTTAGTGCTAG	-0.491
TCATTTTTTTTTTTTGGACTGTGCTAG	1.11
GACGGACTGGGGTAACGGGACGTGCTA	-0.172
GACGGTTTCGCTTTCGGGACGTGCTAG	9.39
CTGAGGCTGCCGTGGCCATGGTGCTAG	-0.97
TTAGGTCACCTACTGCTTTAGTGCTAG	-0.252
TTAGGTTTCATTATCCTTTAGTGCTAG	7.04
GACGGTATCGGTCTCGGTACGTGCTAG	8.41
TTGGGTCTGGGTATTTTTCTGTGCTAG	0.341
TTAGATTTCGGGTATCGATAAGTGCTA	3.37
GACGCTTTCAGTATCGAGACGTGCTAG	3.66

Set 2 — method: RNA Bind-n-Seq; molecule type: RNA; sample: in vitro; concentration: 365 nM; relative to: no-protein control; direction: higher = stronger binding
Target: RNA binding protein fox-1 homolog 2, RRM domain, GST-SBP tag (RBFOX2, Homo sapiens, UniProt O43251-10, residues 100-194)
Setting: natural RNA segment, single round, ends assumed
All sequences stand within: GGGAGUUCUACAGUCCGACGAUC … UGGAAUUCUCGGGUGCCAA
Construct (chain): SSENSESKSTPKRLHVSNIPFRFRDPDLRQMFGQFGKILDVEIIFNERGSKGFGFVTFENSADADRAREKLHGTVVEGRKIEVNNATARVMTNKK
Sequence	RBNS enrichment (R)
AGAGGUCCGUGGGGGAGGCCGUGGGCAAAGGUGUCCCGAGCUGCCAUGUUUAGGAAACACACUGUACCCUGCUCCCAGCAUCACAAGGCACUUGUCUACAAGUGUGUCCC	1.49
UCCUCAGAAGGUUCAUCACGGAAUUUCCUGACAUGCACUGUAGAUGCUACAAACAUGUCUACCCAGGGUACCACUGAGCUACGUCUUCCUCAUGGGGCAGACGUGAUUGG	0.17
CGUUUGUAAACUGCUUGAAGUCUGUGGCAUUCAGGCACACGUCUGGCUGGCCGGCUGGGUCUCCUCCCGGGCUCAGUGGGCCUGGGGCCUCUCUGACGUGGUGCCUGCUG	0.931
ACAUCUGUCUGUGUUAAAAUAAUCAAACGAAAAAUCAGUCCUGUGUUGUCAGCAUGAUUCAUGUAUUUAUAUAGAUUUGAUUAUUUUAAUUUUCCUGUCUCUUUUUUUUG	2.15
UCUGAAACAUUAUCAAACUUGUGUAAAUAUUUUGAUUUAUGUCUUAGAUCCUGUUAACCGUGUCCUCUAAUUGUCUUUAUUUUAAUGCCAAAAGGAAGUGAUUAUGCAGC	0.277
GUCAGUUGUGAGGGCCUGAUUAGACUCUGGAGCAUGGUGUACGACUCUUCUCCAAGAGCGCAUGCAAGAGUCUCCCCCCCUCAGCCUCAUUAAAGACGAAAAGCCACCUC	0.424
CUUUCUUAAAUAAGUUAGUGUUUAUUCAGCUUUGCUUUGCCCCUCCCCUCCCCUUAGCUUUGACUUAGGAAGCCAAGUUUUCUGCAUCAGAUUAUUGCAACAUUUAACCU	0.897
CCCCAGUUGCAUUUAUCGAGCCUUUCUGAUGGCCACAUAGCUCCUGGCAGUGGGUUGGAAGAUUUCUACUGGGUCACAUGAUGUCUGGUAAUGCCAUCUUGAACUCCCUG	0.48
AUUAUAGUGCUUUGUUUGUUUCAGGGUUGGAAUUCUCAACCAGAAAUAAUACUUUCUAAAAUAUUUUAAAAUUCAGCUUGUGCUUUGGAUUAUAGAAGGAAAUUAUACUU	1.7
UCUUAGGUCUAAACUAUGGUGUCAGUUUUAAUAGAACAAAAGUAUGCAUCUUGCCUUGGCUUGAGCCUUUUCGUUUUCAAUGCUGACUUCUCCCCUUUCUCUCCUGUGCU	0.75
CCUAUGCUAGCGACUGUGCUGGUUUCUUCUCUCCGGGCAUCUGGAUGGGUCUGCUCACCACCCUCUUCAUGCUUUUCAUAUUCACCUAUGGUCUGCACAUGAUACUCAGC	0.441
GCAUGCUUUCUGGAGAUGAGGAUUUUUUGUCAGGUAGCUAGGAGAGCACUGCCACCUUGUGUCCAUAUAGCACAAUGUUUCUCUUUCCUAUUCACAGACAAGAUUCAAGA	8.92

Set 3 — method: DHFR PCA, deep sequencing; sample: yeast; added: (+)-ABA 4.8 µM; relative to: wild-type fitted maximum; direction: higher = stronger binding
Target: ABI1, truncated, D143A, DHFR fusion (Arabidopsis thaliana)
Setting: methotrexate growth selection, single substitutions
Starting sequence: PYL1, truncated, DHFR fusion (Arabidopsis thaliana); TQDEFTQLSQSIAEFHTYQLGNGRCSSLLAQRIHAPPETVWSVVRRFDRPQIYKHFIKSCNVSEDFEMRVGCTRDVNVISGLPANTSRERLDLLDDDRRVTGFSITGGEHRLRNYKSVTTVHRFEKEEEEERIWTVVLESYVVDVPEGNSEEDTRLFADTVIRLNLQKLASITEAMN
Substitution	relative binding score [%]
F5L	82.4
F66N	42.7
E139N	42.1
D144P	-5.49
D92I	5.64
N165S	3.43
Q7C	75.3
V44R	-5.59
I105V	69.4
G21L	56.7
A13T	65.3
F15G	0.606
R111F	0.752
G102W	12.8
R74D	2.05
S117N	-10.4
F56L	61.1
A13N	64.7

Set 4 — target: CCNE2, cyclin fold, Cln2 fusion (human); method: yeast growth competition, sequencing; sample: yeast; setting: strong parent motif; relative to: not given; direction: higher = stronger binding
Starting sequence: PKN2 docking peptide (human); VSAVRKLDFSDTM
Substitution	normalised enrichment score
VSAMRKLDFSDTM [V4M]	2.3
VSAVRKLDFSKTM [D11K]	5.19
VSAVRKKDFSDTM [L7K]	0.108
VSAVRKHDFSDTM [L7H]	0.234
VQAVRKLDFSDTM [S2Q]	3.92
VVAVRKLDFSDTM [S2V]	2.26
VSAVRKSDFSDTM [L7S]	0.193
VSAVRKLDVSDTM [F9V]	0.34
VSAVRKLDISDTM [F9I]	0.365
VSKVRKLDFSDTM [A3K]	0.624
VSAGRKLDFSDTM [V4G]	0.0604
VSAVTKLDFSDTM [R5T]	0.0743
VSAVRKLDFSFTM [D11F]	4.38
VSAVRKLDFSDVM [T12V]	4.36
VSAVRKLDCSDTM [F9C]	0.313
VSAVRKLDFSDFM [T12F]	5.08
VSAVRKDDFSDTM [L7D]	-0.0669
VSAVRKLVFSDTM [D8V]	4.02
VSDVRKLDFSDTM [A3D]	-0.0444
VSAVRKLDFSLTM [D11L]	4.89
VSAVRKLLFSDTM [D8L]	1.93
VSAVRKLDFVDTM [S10V]	3.35

Set 5 — method: RNA Bind-n-Seq; molecule type: RNA; sample: in vitro; concentration: 1 µM; setting: whole 134-nt RNA, ends assumed; added: 150 mM KCl; relative to: input library; direction: higher = stronger binding
Target: Ras GTPase-activating protein-binding protein 1, C-terminal RGG region (G3BP1, Homo sapiens, UniProt Q13283)
Sequence of UniProt Q13283 (whole entry, looked up): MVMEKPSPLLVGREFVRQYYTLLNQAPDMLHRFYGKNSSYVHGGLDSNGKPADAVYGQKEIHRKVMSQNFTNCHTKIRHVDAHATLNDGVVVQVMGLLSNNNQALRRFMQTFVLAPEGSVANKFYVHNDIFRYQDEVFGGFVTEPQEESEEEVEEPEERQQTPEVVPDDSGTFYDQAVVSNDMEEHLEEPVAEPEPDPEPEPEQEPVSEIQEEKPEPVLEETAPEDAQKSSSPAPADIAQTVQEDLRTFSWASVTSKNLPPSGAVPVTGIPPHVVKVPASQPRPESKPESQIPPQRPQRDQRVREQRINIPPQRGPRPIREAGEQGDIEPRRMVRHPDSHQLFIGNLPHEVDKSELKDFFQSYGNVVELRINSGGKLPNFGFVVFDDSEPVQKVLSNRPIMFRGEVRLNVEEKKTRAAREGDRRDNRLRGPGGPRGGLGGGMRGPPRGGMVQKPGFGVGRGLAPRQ
All sequences stand within: GGGAGUUCUACAGUCCGACGAUC … UGGAAUUCUCGGGUGUCAAGG
Sequence	log2 enrichment
CAAGUCCUGUGCUACACAUCGUAUGUACCGAAUCGGAAAGGAAAAAGGUUUUUGGAAAGUAUUAUGUUACGCCGUUCGGAUCUGCACUUC	-1.82
UGGGUUCUUAUUUCUAACUUGCAUAUGUUUUGUUUUUCAGAAGGAGUUGAGCCUUCCAAGAAGAGGCAGCUUGUAAGUAGAUGAUUAUUA	-1.43
GCAGGAAGUAAAAACAAAUGGAAAUGAAACGGAUAGUGGCAGGGGUGGGGGUUGCUAAGGAAAGGGUGGGAUGGGAGUGGGUAAAGAGUU	2.23
CAAGUCCUGUGCUACACAUCGUAUGUACCGAAUCGGGAAAGGGUUUUUGGGAGGGAAAGUAUUAUGUUACGCCGUUCGGAUCUGCACUUC	1.2
CUCAAGUCCUGUGCUACACAUCGUAUGUACCGAAUCGGGUGGGAGGGUUUGGGAAAGUAUUAUGUUACGCCGUUCGGAUCUGCACUUCCA	2.09
UCAAGUCCUGUGCUACACAUCGUAUGUACCGAAUCGGGAGGGAGGGUUUUUGGGAAAGUAUUAUGUUACGCCGUUCGGAUCUGCACUUCC	1.87
UCCUGUGCUACACAUCGUAUGUACCGAAUCGGGGUUUUUGGGGAAAAAAAGGGGAGGGGAAAGUAUUAUGUUACGCCGUUCGGAUCUGCA	1.67
CCUCAAGUCCUGUGCUACACAUCGUAUGUACCGAAUCGGCCGGGCCGGCCGGGAAAGUAUUAUGUUACGCCGUUCGGAUCUGCACUUCCA	-1.21
UCAAGUCCUGUGCUACACAUCGUAUGUACCGAAUCGGCCCGGGCCCGGGCCCGGAAAGUAUUAUGUUACGCCGUUCGGAUCUGCACUUCC	-1.47
GUCCUGUGCUACACAUCGUAUGUACCGAAUCAAACCCCCCCAAACCCCCAAACCCAAAAAAGUAUUAUGUUACGCCGUUCGGAUCUGCAC	-0.827
GAGCAAAGAGCCAUUCAGCUUCAGUCUUUACAUACCAUGAAUAAAACAUUAAAACAUCAUAUGGAGAAGUUUACAUGGUGAUUGUUCACC	-1
CCUGUGCUACACAUCGUAUGUACCGAAUCGGGGAAAGGGGUUUUUGGGGUUUUUUUGGGGAAAGUAUUAUGUUACGCCGUUCGGAUCUGC	0.388
CCUGUGCUACACAUCGUAUGUACCGAAUCAAACCCCCCCAAACCCCCCCAAACCCCCAAAAAAGUAUUAUGUUACGCCGUUCGGAUCUGC	-0.918
UAAAUUCAUCUGAAAAUGGUGAGGACAGGCACAAACGCAAAGAAAGAAAGUCAUCAAGAGGCAGAAGUCACUCAAGAUCUAGGUCUCGUG	-2.51

A few entries again (set 2):
Sequence	RBNS enrichment (R)
CUUUCUUAAAUAAGUUAGUGUUUAUUCAGCUUUGCUUUGCCCCUCCCCUCCCCUUAGCUUUGACUUAGGAAGCCAAGUUUUCUGCAUCAGAUUAUUGCAACAUUUAACCU	0.897
CCCCAGUUGCAUUUAUCGAGCCUUUCUGAUGGCCACAUAGCUCCUGGCAGUGGGUUGGAAGAUUUCUACUGGGUCACAUGAUGUCUGGUAAUGCCAUCUUGAACUCCCUG	0.48
AUUAUAGUGCUUUGUUUGUUUCAGGGUUGGAAUUCUCAACCAGAAAUAAUACUUUCUAAAAUAUUUUAAAAUUCAGCUUGUGCUUUGGAUUAUAGAAGGAAAUUAUACUU	1.7
UCUUAGGUCUAAACUAUGGUGUCAGUUUUAAUAGAACAAAAGUAUGCAUCUUGCCUUGGCUUGAGCCUUUUCGUUUUCAAUGCUGACUUCUCCCCUUUCUCUCCUGUGCU	0.75
CCUAUGCUAGCGACUGUGCUGGUUUCUUCUCUCCGGGCAUCUGGAUGGGUCUGCUCACCACCCUCUUCAUGCUUUUCAUAUUCACCUAUGGUCUGCACAUGAUACUCAGC	0.441
